Results pooled from the literature.
Every numbered part comes from another study and shows a few of its results, in no order. Substitutions count along the parent as printed.

Series 1 — method: RNA Bind-n-Seq; form: RNA; sample: in vitro; tested at: 1 µM; setting: whole 134-nt RNA, ends assumed; with: 150 mM KCl; relative to: input library; reading: higher = stronger binding; measurement: log2 enrichment
Target: Ras GTPase-activating protein-binding protein 1, C-terminal RGG region (G3BP1, Homo sapiens, UniProt Q13283)
Sequence of UniProt Q13283 (whole entry, looked up): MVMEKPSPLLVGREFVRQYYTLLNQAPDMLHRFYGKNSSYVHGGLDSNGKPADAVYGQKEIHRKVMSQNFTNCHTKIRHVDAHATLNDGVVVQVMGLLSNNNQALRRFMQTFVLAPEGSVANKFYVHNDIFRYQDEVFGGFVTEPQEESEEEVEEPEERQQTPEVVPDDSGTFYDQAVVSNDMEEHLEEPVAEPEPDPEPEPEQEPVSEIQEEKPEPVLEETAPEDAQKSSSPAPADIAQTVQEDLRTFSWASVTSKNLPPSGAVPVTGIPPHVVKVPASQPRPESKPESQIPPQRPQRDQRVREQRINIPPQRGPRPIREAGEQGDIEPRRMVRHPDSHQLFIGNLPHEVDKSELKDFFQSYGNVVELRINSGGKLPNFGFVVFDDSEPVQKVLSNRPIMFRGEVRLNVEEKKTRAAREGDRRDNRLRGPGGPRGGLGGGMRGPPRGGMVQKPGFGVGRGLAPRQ
Shared flanks, not repeated: GGGAGUUCUACAGUCCGACGAUC … UGGAAUUCUCGGGUGUCAAGG
UGGCCGUGGUGGCAUGCGGGGAGGAAGAGGUGGCCUCAUGGAUCGUGGUGGUCCCGGUGGAAUGUUCAGAGGUGGCCGUGGUGGAGACAG: 2.35
GUCCUGUGCUACACAUCGUAUGUACCGAAUCGGGGAAAGGGGUGGGGAAAAAAAGGGGAAAGUAUUAUGUUACGCCGUUCGGAUCUGCAC: 1.45
CCUGUGCUACACAUCGUAUGUACCGAAUCGGGGAAAAAGGGGAAAGGGGAAAAAAAGGGGAAAGUAUUAUGUUACGCCGUUCGGAUCUGC: -0.102
CCUGUGCUACACAUCGUAUGUACCGAAUCGGGGAAAGGGGUUUUUGGGGAAAAAAAGGGGAAAGUAUUAUGUUACGCCGUUCGGAUCUGC: 0.387
AAGUCCUGUGCUACACAUCGUAUGUACCGAAUCGGUUUGGAAAAAAAGGUUUUUGGAAAGUAUUAUGUUACGCCGUUCGGAUCUGCACUU: -2.25
GCAGGAAGUAAAAACAAAUGGAAAUGCUUCGGAUAGUGGCAGGGGUGGGGGUUGCUAAGGAAAGGGUGGGAUGGGAGUGGGUAAAGUGUU: 0.779
UCAAGUCCUGUGCUACACAUCGUAUGUACCGAAUCGGUUGGGGUUGGGGUUGGGAAAGUAUUAUGUUACGCCGUUCGGAUCUGCACUUCC: 1.51
UCCUCAAGUCCUGUGCUACACAUCGUAUGUACCGAAUCGGCGGGCGGGCGGAAAGUAUUAUGUUACGCCGUUCGGAUCUGCACUUCCAGC: -0.947
CAAGUCCUGUGCUACACAUCGUAUGUACCGAAUCGGUUUUUUUGGUUUGGAAAGGAAAGUAUUAUGUUACGCCGUUCGGAUCUGCACUUC: -1.85
GCAGGAAGUAAAAACAAAUGGAAAUGCUUCGGAUAGUGGCAGGGGUGGGGGUUGCUAAGGAAAGGGUGGGAUGGGAGAAAGUAAAGAGUU: 1.37
UGGGAGGUGGAUUUUGUUUAUUUUUUUAGCUCAUUUCCAGGGGUGGGAAUUUUUUUUUAAUGUGUGUCAUGAAUAAAGUUGUUUUUGAAA: 3.3
CACAGACAACACGCACCCACACAGACACAGAGGGAAGGGCUUGGGAUGGGGACAGGGUGCACAGCAGGGCGGGGUAGGACCCCAGCCCCU: -0.799
GCAGGAAGUGAAAACAAAUGGAAAUGCUUCGGAUAGUGGCAGGGGUGGGGGUUGCUAAGGAAAGGGUGGGAUGGGAGUGGGUAAAGAGUU: 2.7
GUCCUGUGCUACACAUCGUAUGUACCGAAUCGGUUUUUUUGGUUUUUGGAAAAAAAGGAAAGUAUUAUGUUACGCCGUUCGGAUCUGCAC: -1.65

Series 2 — method: DHFR PCA, deep sequencing; sample: yeast; with: (+)-ABA 2500 µM; relative to: wild-type fitted maximum; reading: higher = stronger binding; measurement: relative binding score
Target: ABI1, truncated, D143A, DHFR fusion (Arabidopsis thaliana)
Setting: methotrexate growth selection, single substitutions
Starting sequence: PYL1, truncated, DHFR fusion (Arabidopsis thaliana); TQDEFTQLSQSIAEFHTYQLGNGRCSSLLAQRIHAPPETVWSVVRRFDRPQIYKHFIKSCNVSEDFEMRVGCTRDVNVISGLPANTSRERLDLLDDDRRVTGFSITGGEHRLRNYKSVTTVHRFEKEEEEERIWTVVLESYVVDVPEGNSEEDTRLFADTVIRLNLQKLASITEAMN; partner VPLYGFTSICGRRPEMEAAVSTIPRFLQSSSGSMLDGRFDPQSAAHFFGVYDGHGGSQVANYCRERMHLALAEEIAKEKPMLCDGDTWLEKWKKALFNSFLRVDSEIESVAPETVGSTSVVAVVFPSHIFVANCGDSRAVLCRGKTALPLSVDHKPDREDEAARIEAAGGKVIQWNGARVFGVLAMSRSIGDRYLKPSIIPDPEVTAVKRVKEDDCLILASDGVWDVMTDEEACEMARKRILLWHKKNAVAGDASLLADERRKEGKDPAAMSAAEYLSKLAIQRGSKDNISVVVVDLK
S140C: 38.6%
S80L: 38.2%
D75A: 94.5%
S80R: 78.9%
F15T: 80.5%
T1F: 97.8%
L82T: 84.3%
I105L: 81.9%
Q31L: 73.7%
G21P: 97%
T101N: 68.3%
H110M: 83.6%
A30W: 101%
K54L: -7.33%
V70I: 90.7%
S59Y: 90.6%
W41D: -8.5%

Series 3 — method: Sort-seq; item: YFP reporter; sample: E. coli; setting: PhoQ-PhoP variant library; with: 10 µM Mg2+; relative to: high Mg2+ state; reading: higher = stronger signaling; measurement: fold induction
Substance: PhoQ, residues 284 288 289 292 302 303 SMMNNA
PhoP, residues 12 14 15 18 19 LHHYF (Escherichia coli, UniProt P23836): 4.83
PhoP, residues 12 14 15 18 19 NFFVT (Escherichia coli, UniProt P23836): 22
PhoP, residues 12 14 15 18 19 VGHWL (Escherichia coli, UniProt P23836): 3.61
PhoP, residues 12 14 15 18 19 TPWTL (Escherichia coli, UniProt P23836): 0.422

Series 4 — method: protein-binding microarray; form: double-stranded DNA, one strand shown; sample: in vitro; tested at: 940 nM top; setting: 60-bp whole probe; with: salmon DNA 0.4 mg/ml; relative to: random background probes; reading: higher = stronger binding; measurement: fitted relative affinity; shared flanks, not repeated: GCCTAGCAC … GTCTTGATTCGCTTGACGCTGCTG
Target: Interferon regulatory factor 5, full length, phosphomimetic (IRF5, Homo sapiens, UniProt Q13568-2, residues 1-514, S451D/S453D/S456D/S462D)
GGCGGTATCGACACTGGGGACGTGCTA: 3.8 z-score
TTAGGTATCGGGTATCAGTTAGTGCTA: 6.29 z-score
TCATTTTTTGGTTTCTGACTGTGCTAG: 2.37 z-score
TTAGGTATCTTTTTCCTTTAGTGCTAG: 0.924 z-score
GACGAACTGGGGTATCAAGACGTGCTA: 0.0854 z-score
GACGGACTGGGGACTTGGGACGTGCTA: -0.312 z-score
GACGGTCTCGGTTTCGGCACGTGCTAG: 6.19 z-score
GACGGTCTCGGTATCGGGACGTGCTAG: 5.04 z-score
ACCTGTTCCCTCATCAGGCTGTGCTAG: 0.775 z-score
TCATCCATGTGTTTAAAACTGTGCTAG: -0.0484 z-score
TTAGGTTTCGACACTGGGATAGTGCTA: 7.99 z-score
TTAGGTTTCGGGACTGGGTTAGTGCTA: 8.37 z-score
GACGGTTTCGGTTTCAGGACGTGCTAG: 13.6 z-score
GACGGTCTCGGGCTCGGGACGTGCTAG: 1.03 z-score
TTAGATTTCAGTTTCGATTTGTGCTAG: 8.85 z-score
GACGAACTCGGGACTGGAGACGTGCTA: -0.496 z-score

Series 5 — target: CCND1, cyclin fold, Cln2 fusion (human); method: yeast growth competition, sequencing; sample: yeast; setting: weak parent motif; relative to: not given; reading: higher = stronger binding; measurement: normalised enrichment score
Starting sequence: REV3L docking peptide (human); PPVIIKYIIINRF; partner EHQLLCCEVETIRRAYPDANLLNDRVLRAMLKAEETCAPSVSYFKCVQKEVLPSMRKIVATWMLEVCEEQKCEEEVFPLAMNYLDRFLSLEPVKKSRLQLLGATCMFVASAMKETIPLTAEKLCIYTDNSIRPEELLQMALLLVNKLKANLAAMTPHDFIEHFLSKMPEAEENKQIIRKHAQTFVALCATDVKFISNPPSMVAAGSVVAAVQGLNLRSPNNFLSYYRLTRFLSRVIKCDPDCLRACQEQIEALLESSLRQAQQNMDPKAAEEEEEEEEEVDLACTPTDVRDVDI
P1A: -0.104
N11A: -0.602
F13A: 0.0785
I4A: -0.0456
I10A: 0.487
Y7A: 0.528

Series 6 — method: RNA Bind-n-Seq; form: RNA; sample: in vitro; tested at: 365 nM; relative to: no-protein control; reading: higher = stronger binding; measurement: RBNS enrichment (R)
Target: RNA binding protein fox-1 homolog 2, RRM domain, GST-SBP tag (RBFOX2, Homo sapiens, UniProt O43251-10, residues 100-194)
Setting: natural RNA segment, single round, ends assumed
Shared flanks, not repeated: GGGAGUUCUACAGUCCGACGAUC … UGGAAUUCUCGGGUGCCAA
Construct (chain): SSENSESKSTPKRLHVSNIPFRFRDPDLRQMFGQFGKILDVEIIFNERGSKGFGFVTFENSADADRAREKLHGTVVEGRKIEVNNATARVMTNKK
UAGCUGAAGAACUUACCACGUCCAUGACUGUGCCCUGACUCAAGACCGUAUCAUGUGGUGGCUUUAUUUCUACACUUCUUGCCCACCAUGGAUGGCCUGAAGAAGCUGUU: 0.461
CAGUUAUGUUGUUUAUGGCUCAAGAUGUCAUUAGAAAUACUGCAGUGGUGUAUUCACAGCUGCUCCUUCUCUGAAUGAAAGAGUGUAGGGACACCUGCCACCAUGGCCAG: 0.367
AUAUUUUACUGAUUGGAAAUGUCAUCCUUUAUUAAAAAUAAACAUGGUUUUCCAUAGUUGCCUGCCACCUAAGUUCACAUUAUUCUUCUUUUAUAUCAUUAUCACUAGUU: 0.83
UAAAUUUUAAAUGGAAUAUUUUAAACUGAUACAGUGGUGUAUGUGUGUGUAUAUGUAAUUUUCUUAAUGUCUUAAGAAAUCUGGCUAUAUAAGUUCCACUGUACAAUGUC: 1.44
GCAUUUUGGGAGGCUGAGGCAGGUGGAUCACUUGAGAUCAAGAGCUUAAAACCAGCCCAGGCAACAUGGCAAAACCCCGUCUCUACAAAAAAAUACAAAAACUAGCUGGG: 1.02
UACACAUUUCCCCCAGGGACCCUGUCUUACGAUGCUUUUCUACGUCAAUGCAAUUGUGGCCAUCUGGCCACAAGCUCCAAGGGACUUACAAGCUCAAGGGCCAGAGCCCA: 0.241
CUUUGGAUUUGUCUCAGUGCCUUAGCAUCUGAAAACCUGUGCUUGUAUAUGUGUGUGUAUGUGUAGGGGCAGCCCCUAUCUCUGGCUCCUUUUCCACCCUUCUCCCCAGU: 2.59
UGAACAGGGUGGAGGGGUGUGGGAAAGAAACCAGCCAUAUUGGUUUUGGUUUCUGUAUUUUUCACAAUGAUUAAUGAACAAAAACAAAGAGAAAAAAACACACAUCAAUU: 0.508
UAGUUUACUAAACUAGAAGUCCUCAUAGUUUAAAAUGGCCUCAGCAGGCCUAGUGUAUACAAACUGGUUGUAUGUAUCAUGCCGUGGAGCUAGGGGGAGGAGUCAUUGUG: 0.388
GGGAUACCUAAGGACCAAUGUUUUCUUCCUCUUAGACACAAAUAAAGAUGCUGAGAAAAAGCAACAACCUCGGAGUGGAUUCUCAAUCAUGGUCUCCAUUGUCUUCCUCC: 0.373
AUCAUCAAAGCAUGGGUACCCCCAUCUGCAAGGGAUGGGCUUCAUCCUCCGCUAGUCCCUGUGUCCUUCCUGGGCACGGGGUGAGAGCUGUAGAAGCGGUGGGGGCACAG: 1.16
ACUAUAUUUGAUGGGGCCAAGAGGGUCCAAACCCUGCUAACAUACCACUUUAUUCAACUCCUUUACUUUCCUAGCCGGUUGAGGAGGGACCAUGAGAACAGAAAUUACCU: 0.417

Excerpt of the above (series 4):
TTAGGTATCTTTTTCCTTTAGTGCTAG: 0.924 z-score
GACGAACTGGGGTATCAAGACGTGCTA: 0.0854 z-score
GACGGACTGGGGACTTGGGACGTGCTA: -0.312 z-score
GACGGTCTCGGTTTCGGCACGTGCTAG: 6.19 z-score
GACGGTCTCGGTATCGGGACGTGCTAG: 5.04 z-score
ACCTGTTCCCTCATCAGGCTGTGCTAG: 0.775 z-score
TCATCCATGTGTTTAAAACTGTGCTAG: -0.0484 z-score
TTAGGTTTCGACACTGGGATAGTGCTA: 7.99 z-score
TTAGGTTTCGGGACTGGGTTAGTGCTA: 8.37 z-score
